Results pooled from the literature.
“And” joins repeats or separate records; there may be more than shown. ± marks the error that the study gave.

With `CCc1c(-c2ccccc2)c(-c2ccccc2)nn1-c1ccccc1-c1cccc(OCC(=O)O)c1` the mRNA level was 1.42 and 1.31 and 1.32 (mouse osteoclasts; RT-qPCR, measured: Fcgr4; 1 µM, unit not given, added: M-CSF plus RANKL; reference: bone marrow macrophages).
The inhibition of `C=CC(=O)N1CCC(Oc2cc3c(Nc4ccc(Cl)c(Cl)c4F)ncnc3cc2OC)CC1` is reported as -3.34% (THP-1; pyroptotic LDH release; 2 µM, 40 min, added: LPS then nigericin).
For `O=C(C[C@@H](C(F)F)n1ccc(F)n1)N1CCC(O)(Cn2cnc3c(cnn3-c3ccc(F)cc3)c2=O)CC1`, the viable cells was 52% and 53.1% and 58.3% (CHP-212 parental; annexin V/PI flow cytometry; 0.3 µM, 48 h).
The inhibition of `C=CC(=O)Nc1cc2c(Nc3ccc(F)c(Cl)c3)ncnc2cc1OCCCN1CCOCC1` is reported as 34.7% (THP-1; pyroptotic LDH release; 2 µM, 40 min, added: LPS then nigericin).
`c1ccc2[nH]ccc2c1`: “mRNA level, LS mean” 64 counts per million (HCT-8; RNA-seq, measured: CAPN5; concentration not given).
The EC50 of `Cc1cccc(/C=N/Nc2cc(N3CCOCC3)nc(OCCc3ccccn3)n2)c1` is reported as 2.73 µM (HEK293T ATF4-FLuc reporter; ATF4 reporter gene, activator, luciferase reporter).
`CCn1cc(-c2cc(Cn3ccoc3=N)cc3c2CCN([C@@H](C)c2cc(OC)ccn2)C3=O)c(C(F)(F)F)n1` gave an EC50 of greater than 30 µM (NCI-H747; cell growth, inhibitor; 120 h).
The inhibition of `CC(=O)OCc1ccccc1` is reported as 5.79% (THP-1; pyroptotic LDH release; 2 µM, 40 min, added: LPS then nigericin).
For `C=CC(=O)N1[C@@H](c2ccc3c(c2)OCO3)c2[nH]c3ccccc3c2C[C@H]1C(=O)NC`, “mean neuron degeneration” read 70.9% (rat DRG neurons; 1.111 µM, 48 h, added: vincristine 40 nM).
Under “YAP protein level”, `CC/C(=N\NC(=O)NCc1cccc(O)c1)c1ccc(O)c(C)c1O` is recorded as 1.65 ± 0.36 (SK-OV-3; Western blot; 2D culture; 20 µM, 1 h, unit not given; reference: β-actin).
The cell growth of `O=C(Nc1nnc2n3c(nc(-c4ccc(Cl)cc4)c1-2)SCC3=O)c1ccccc1` is reported as 99.8% (OVCAR-8; SRB; 10 µM, NCI60 single-dose screen; reference: untreated).
Under phosphorylation, `CC(=O)Nc1cc(Oc2ccc3c(nc(Nc4ccc(F)cc4F)n3C)c2C)ccn1` is recorded as “inhibited” (MUTZ5 cells; Western blot, measured: JAK2, STAT5, STAT3; concentration not given).
`COc1cc(/C=C/C(=O)O)ccc1O` gave a kynurenine level of 111 ± 5.8 % change (Caco-2/THP-1 co-culture; concentration not given, added: LPS 500 ng/mL).
With `Clc1nc(NCc2ccco2)c2[nH]cnc2n1` the ΔPSI was -0.288 (FD iPSC-derived cardiomyocytes; alternative splicing, RNA-seq, measured: CHN1 exon chr2(-):174875787-174875865; unit not given; reference: DMSO minus compound).
`COc1cc2ncnc(Nc3ccc(Oc4ccccc4)c(C)c3C)c2cc1OC.Cl` — result for “Bliss synergy score”: 26.4% (Calu-6 (KRAS Q61K); resazurin; concentration not given, 72 h, added: trametinib; direction not given).
`CCSCc1ccc2c(c1)c1c3c(c4c5cc(CSCC)ccc5n5c4c1n2[C@H]1C[C@](O)(C(=O)OC)[C@]5(C)O1)CNC3=O` gave an EC50 of 1.5 µM (HEK293T ATF4-FLuc reporter; ATF4 reporter gene, activator, luciferase reporter).
`CCn1cc(-c2cc(Cn3ccnc3)cc3c2CCN([C@H](c2cc(OC)ccn2)C2CC2)C3=O)c(C(F)(F)F)n1` has an EC50 of 13.9 µM (COR-L105; cell growth, inhibitor; 120 h).
Under “log2 fold change”, `Cn1cc(-c2ccc(-c3cncc(Cl)c3N3CCC4(CCNC4=O)CC3)cc2)cn1` is recorded as 2.2 (COLO 205; gene expression, microarray, measured: IER5 mRNA; concentration not given, 6 h; reference: untreated cells).
Under “phospho-TBK1 to TBK1 ratio”, `Cc1nn(-c2nc3c(F)cc(F)cc3s2)c(O)c1C(c1ccc(C(F)(F)F)cc1)c1c(C)nn(-c2nc3c(F)cc(F)cc3s2)c1O` is recorded as 1.04 and 0.821 and 0.936 (THP1-Dual; western blot; 10 µM, dose series, added: HT-DNA; reference: DMSO).
With `CC(C)(C)NC(=O)c1cncn1C1CCN(c2ccc(-c3nnc(C(F)(F)F)o3)cn2)CC1` the mRNA level was 1.38 (HDMEC; qPCR, measured: TSC22D2; concentration not given, unit not given; reference: DMSO).
With `Cc1nc(OCCCCCN2CCCCC2)cc(-c2ccc(F)cc2)n1` the EC50 was greater than 9.96 µM (HEK293T ATF4-FLuc reporter; ATF4 reporter gene, activator, luciferase reporter).
`COc1cc(CCC(=O)O)ccc1O` has a kynurenine level of 128 ± 12.4 % change (Caco-2/THP-1 co-culture; concentration not given, added: LPS 50 ng/mL).
For `CC(C)N(CCO/N=C1\CCCCC\C1=C\c1ccccc1)C(C)C`, the EC50 was greater than 9.96 µM (HEK293T ATF4-FLuc reporter; ATF4 reporter gene, activator, luciferase reporter).
With `O=C(O)/C=C/c1ccc(O)c(O)c1` the IL-1β level was 6.3 ± 1.6 fold change (coculture, Caco-2, THP-1; ELISA; 250 ng/mL, 8 h, added: LPS, IFNγ, ATP; reference: untreated control).
For `CCCCc1oc2ccc(NS(C)(=O)=O)cc2c1C(=O)c1ccc(OCCCN(CCCC)CCCC)cc1`, the fold change was 3.9 fold (human embryonic stem cell aggregates; mRNA level, microarray, measured: KCNQ5; 0.5 µM, 120 h; reference: untreated, down-regulated).
With `O=C(/C=C/C=C/C=C/C1CCCCC1)NC1=C[C@@](O)(/C=C/C=C/C=C/C(=O)NC2=C(O)CCC2=O)[C@@H]2O[C@@H]2C1=O` the GI50 was 13.7 µM (HCC1806; cell growth, CellTiter-Glo; 78 h).
For `O=C(O)CCc1cccc(O)c1`, the IL-1β level was 10.3 ± 2 fold change (coculture, Caco-2, THP-1; ELISA; 50 ng/mL, 8 h, added: LPS, IFNγ, ATP; reference: untreated control).
`CC(C)CN(C[C@@H](OP(=O)(O)O)[C@H](Cc1ccccc1)NC(=O)O[C@H]1CCOC1)S(=O)(=O)c1ccc(N)cc1` has an inhibition of -0.0894% (THP-1; pyroptotic LDH release; 2 µM, 40 min, added: LPS then nigericin).
`Nc1nc(Cl)nc2c1ncn2[C@@H]1O[C@H](CO)[C@@H](O)[C@@H]1F` has an EC50 of 7.84 µM (HEK293T ATF4-FLuc reporter; ATF4 reporter gene, activator, luciferase reporter).
`CO/N=C(\C(=O)N[C@@H]1C(=O)N2C(C(=O)OC(C)OC(C)=O)=C(COC(N)=O)CS[C@H]12)c1ccco1` (stereo partly drawn) has an inhibition of 12.9% (THP-1; pyroptotic LDH release; 2 µM, 40 min, added: LPS then nigericin).
For `O=c1[nH]nc(OCCCc2ccc(Cl)cc2)c(NCc2cccnc2)c1Br`, “log2 fold change” read 3.7 (HEK293T; RNA-seq, measured: CHAC1 mRNA; 10 µM, 6 h; reference: vehicle).
`Cc1cc(OCc2nnc(SC3CCCC3)n2-c2cccnc2)ccc1-c1ccc(S(C)(=O)=O)cc1`: “MyBP-C level change” 8.08 SD (human iPSC cardiomyocytes; plate-normalised; concentration not given, hit retest; reference: vehicle controls, SDs below control).
`C[C@H]1[C@H](C)CC[C@]2(C)CC[C@]3(C)C(=CC(=O)[C@@H]4[C@@]5(C)CC[C@@H](O)[C@](C)(C(=O)NCc6cn(-c7cccc(Br)c7)nn6)[C@@H]5CC[C@]43C)[C@H]12` — result for “CD8+ T cells”: 36% (human PBMCs, ConA-activated; flow cytometry; 10 µM, 24 h; reference: T cells).
`Nc1cccc2c1CN(C1CCC(=O)NC1=O)C2=O` (stereo not drawn) gave a viability of 7% (bone marrow CD138+ myeloma cells; XTT; 1.8 µM, phenol red-free RPMI).
`Cn1c(Nc2nc3ccc(C(F)(F)F)cc3s2)nc2cc(C(=O)NCCOCCO)ccc21` gave a fold change of 2.28 (SH-SY5Y; RNA-seq, measured: SGK1 mRNA; 5 µM, 5 h; reference: untreated cells).
`N#Cc1ccnc(Nc2cc(C3CCN(C4COC4)CC3)cc(N3CCC(F)(F)C3)n2)c1` has an inhibition of 32.3% (THP-1; pyroptotic LDH release; 2 µM, 40 min, added: LPS then nigericin).
For `O=C(O)Cc1ccc(O)cc1`, the kynurenine level was 91.2 ± 3.5 % change (Caco-2/THP-1 co-culture; 0.25 µg/mL, added: LPS 250 ng/mL).
With `CCCCN1CCN(c2ccc3[nH]c(-c4ccc5[nH]c(-c6ccc(OCC)c(OCC)c6)nc5c4)nc3c2)CC1` the growth percent was -96.3% (RXF 393; SRB; 10 µM, 48 h).
`C[C@H](NC(=O)C(=O)Nc1ccccc1C(C)(C)C)C(=O)N[C@@H](CC(=O)O)C(=O)COc1c(F)c(F)cc(F)c1F` gave an LDH release of 16.5% and 16.6% and 17.9% (THP-1 cells expressing FKBP-caspase-11; pyroptosis, inhibitor; concentration not given, added: B/B dimerizer).
`CCOC(=O)c1nn(-c2ccccc2)c(C#N)c1NC(=O)c1nn(CC)cc1F` gave an inhibition of less than 0.5% (human monocytes; phagocytosis of anti-D RBCs; 5 µM, lab-synthesized sample).
`N=C(NCCCCCCNC(=N)NC(=N)Nc1ccc(Cl)cc1)NC(=N)Nc1ccc(Cl)cc1` gave an EC50 of 5.3 µM (HEK293T ATF4-FLuc reporter; ATF4 reporter gene, activator, luciferase reporter).
For `COC(=O)[C@]12CCC(C)(C)C[C@H]1[C@H]1C(=O)C=C3[C@@]4(C)C=C(C#N)C(=O)C(C)(C)[C@@H]4CC[C@@]3(C)[C@]1(C)CC2`, “point of departure” read 0.891 µM (HepG2; high content imaging, measured: DNA structure; 24 h, representative mode).
